# Experimental data pooled from the literature.
# Compare with care: the assays were run in different laboratories.
# MAP3K7 with TAB1: Mitogen-activated protein kinase kinase kinase 7, with TAB1 (MAP3K7, Homo sapiens, UniProt O43318)
# Sequence of UniProt O43318 (whole entry, looked up): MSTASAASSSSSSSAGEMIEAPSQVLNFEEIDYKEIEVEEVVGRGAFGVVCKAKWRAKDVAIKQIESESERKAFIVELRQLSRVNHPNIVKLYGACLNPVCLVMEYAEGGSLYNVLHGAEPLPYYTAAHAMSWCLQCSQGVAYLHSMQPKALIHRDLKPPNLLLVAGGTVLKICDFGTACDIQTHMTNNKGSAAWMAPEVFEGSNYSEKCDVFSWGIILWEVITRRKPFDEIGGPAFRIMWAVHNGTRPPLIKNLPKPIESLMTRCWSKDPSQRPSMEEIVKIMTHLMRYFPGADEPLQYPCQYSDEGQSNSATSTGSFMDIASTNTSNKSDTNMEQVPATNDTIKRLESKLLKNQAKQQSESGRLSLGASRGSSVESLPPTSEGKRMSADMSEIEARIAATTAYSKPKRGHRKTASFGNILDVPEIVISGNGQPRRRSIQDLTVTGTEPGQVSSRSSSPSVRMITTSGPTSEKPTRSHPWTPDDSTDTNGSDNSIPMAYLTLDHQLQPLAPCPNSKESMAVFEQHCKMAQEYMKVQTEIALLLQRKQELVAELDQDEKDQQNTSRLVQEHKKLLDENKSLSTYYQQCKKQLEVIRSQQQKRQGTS
# MAP3K7: Mitogen-activated protein kinase kinase kinase 7 (MAP3K7, Homo sapiens, UniProt O43318)
Structure (SMILES),target,assay,system,conditions,how to read,endpoint,value
CS(=O)(=O)Nc1cccc(-c2csc(NC(=O)CSc3nc4nccnc4c(=O)n3CCc3ccccc3)n2)c1,MAP3K7 with TAB1,,,10 µM,,inhibition,-12%
Cn1cc(-c2cnc3ccc(NC(=O)Nc4ccc(F)c(Br)c4)cc3n2)cn1,MAP3K7,"kinase binding, KiNativ profiling, measured: Lys2 peptide",PANC-1 lysate,1.25 µM,,inhibition,0.5%
CCOC(=O)O[C@H]1C[C@H]2O[C@@H]2c2cc(OC)cc(O)c2C(=O)O[C@@H](C)C/C=C/C(=O)[C@H]1O,MAP3K7 with TAB1,"kinase activity, Kinase-Glo luminescence",,concentration not given,,inhibition,inactive
COc1cc(-c2cc(-c3ccc(N4CCNCC4)cc3)cnc2C)cc(OC)c1OC,MAP3K7 with TAB1,kinome profiling,,1 µM,,inhibition,2%
O=C1NC(=O)/C(=C/c2ccc(-c3ccc(F)cc3O)o2)S1,MAP3K7,enzyme activity,,10 µM,,remaining activity,48%
CC(C)(C)c1nc(-c2cccc(NS(=O)(=O)c3c(F)cccc3F)c2F)c(-c2ccnc(N)n2)s1,MAP3K7 with TAB1,"kinase activity, radiometric 33PanQinase",,1 µM,relative to: DMSO,remaining activity,76%
CCOC(=O)Oc1cc(OC)cc2c1C(=O)O[C@@H](C)C/C=C/C(=O)[C@@H](O)[C@@H](OC(=O)OCC)C[C@H]1O[C@H]21,MAP3K7 with TAB1,"kinase activity, Kinase-Glo luminescence",,concentration not given,,inhibition,inactive
CCN1CCN(Cc2ccc(NC(=O)c3ccc(C)c(Oc4ccnc5[nH]ccc45)c3)cc2C(F)(F)F)CC1,MAP3K7,,A-375,concentration not given,,inhibition,> 98%
CNc1ncc2c(/C=C/C(=O)N3CCC(OC)CC3)nn(Cc3cccc(C(F)(F)F)c3)c2n1,MAP3K7 with TAB1,inhibitor,,1 µM,relative to: control,remaining activity,92%
Cc1cc(Nc2cc(N3CCN(C)CC3)nc(Sc3ccc(NC(=O)C4CC4)cc3)n2)[nH]n1,MAP3K7,"kinase activity, KinaseProfiler",,"0.03 µM, species human",relative to: control,remaining activity,93%
O=C(CSc1nc2nccnc2c(=O)n1CCc1ccccc1)Nc1nccs1,MAP3K7 with TAB1,,,10 µM,,inhibition,-10%
COc1cc(F)ccc1-c1ncnc(Nc2cccc(C[S@](C)(=N)=O)c2)n1,MAP3K7,kinase activity,,"10 µM, together with: 10 µM ATP",,remaining activity,82%

# A few entries again:
Structure (SMILES),target,assay,system,conditions,how to read,endpoint,value
COc1cc(F)ccc1-c1ncnc(Nc2cccc(C[S@](C)(=N)=O)c2)n1,MAP3K7,kinase activity,,"10 µM, together with: 10 µM ATP",,remaining activity,82%
